# Published values gathered from unrelated publications.
# Each numbered part is a random draw from the data of one study; scales do not carry over between parts.

# Study 1 — method: protein-binding microarray; molecule type: double-stranded DNA, one strand shown; matrix: in vitro; tested at: 2540 nM top; setting: 60-bp whole probe; added: salmon DNA 0.4 mg/ml; relative to: random background probes; reading: higher = stronger binding; all sequences stand within: GCCTAGCAC … GTCTTGATTCGCTTGACGCTGCTG
# Target: Interferon regulatory factor 3, full length, phosphomimetic (IRF3, Homo sapiens, UniProt Q14653, residues 1-427, S386D/S396D/S398D/S402D/T404D/S405D)
# Residues (chain): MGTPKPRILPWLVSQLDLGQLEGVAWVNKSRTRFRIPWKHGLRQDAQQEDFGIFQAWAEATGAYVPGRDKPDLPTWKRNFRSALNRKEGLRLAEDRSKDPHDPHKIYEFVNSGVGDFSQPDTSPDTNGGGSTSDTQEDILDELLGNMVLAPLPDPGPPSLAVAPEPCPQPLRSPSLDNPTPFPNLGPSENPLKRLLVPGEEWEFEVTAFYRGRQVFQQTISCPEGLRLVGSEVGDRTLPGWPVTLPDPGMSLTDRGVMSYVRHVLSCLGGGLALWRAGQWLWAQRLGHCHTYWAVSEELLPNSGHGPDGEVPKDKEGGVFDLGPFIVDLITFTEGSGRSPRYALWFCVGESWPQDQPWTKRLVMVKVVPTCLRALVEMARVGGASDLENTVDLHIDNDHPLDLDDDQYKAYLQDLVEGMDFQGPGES
Sequence,fitted relative affinity
TTAGATCTCGGTATCGGTTAGTGCTAG,1.99 z-score
TTAGGTATCCTTATCCTGTAGTGCTAG,4.77 z-score
TTAGATATCAGTTTCGAATAGTGCTAG,3.94 z-score
GGCGGTTTCGGGTATCGGGACGTGCTA,4.56 z-score
TTAGGACTGGACTATCGGCTAGTGCTA,-0.653 z-score
GACGGTATCCTGCTGCTGACGTGCTAG,0.954 z-score

# Study 2 — method: RNA Bind-n-Seq; molecule type: RNA; matrix: in vitro; tested at: 200 nM; setting: whole 134-nt RNA, ends assumed; added: 150 mM LiCl; relative to: input library; reading: higher = stronger binding; each molecule: 7-deaza-guanosine replaces G
# Target: Ras GTPase-activating protein-binding protein 1, full length (G3BP1, Homo sapiens, UniProt Q13283)
# Sequence of UniProt Q13283 (whole entry, looked up): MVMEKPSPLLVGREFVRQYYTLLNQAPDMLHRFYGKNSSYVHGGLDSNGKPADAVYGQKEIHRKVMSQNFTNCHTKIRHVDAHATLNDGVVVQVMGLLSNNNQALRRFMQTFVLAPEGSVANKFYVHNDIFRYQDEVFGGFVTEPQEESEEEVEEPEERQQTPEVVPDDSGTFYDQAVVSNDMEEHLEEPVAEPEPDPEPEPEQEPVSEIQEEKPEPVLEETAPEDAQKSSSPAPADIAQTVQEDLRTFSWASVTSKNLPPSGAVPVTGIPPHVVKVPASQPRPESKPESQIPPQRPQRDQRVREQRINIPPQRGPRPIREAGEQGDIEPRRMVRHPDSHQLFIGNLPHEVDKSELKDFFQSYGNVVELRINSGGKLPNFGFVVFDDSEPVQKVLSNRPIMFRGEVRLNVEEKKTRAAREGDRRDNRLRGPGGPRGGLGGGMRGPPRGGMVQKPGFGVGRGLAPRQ
Sequence,log2 enrichment
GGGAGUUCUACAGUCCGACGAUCAGUCCUGUGCUACACAUCGUAUGUACCGAAUCGGGAGGGUUUUUGGGAAAAAAAGGGAAAGUAUUAUGUUACGCCGUUCGGAUCUGCACUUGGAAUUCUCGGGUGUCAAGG,-0.657
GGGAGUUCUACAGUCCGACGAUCUGCACACCGCCUUGCACAUAGCAGAGGCUCCGGGCUCACUCCUUCCUGGUGGGAAAGGAAGAUGCCUGUCCUCUCCGUGGAAGACCCUGGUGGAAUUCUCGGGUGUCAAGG,-0.168
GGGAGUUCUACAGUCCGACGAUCGUCCUGUGCUACACAUCGUAUGUACCGAAUCGGUUUUUGGAAAAAAAGGAAAAAAAGGAAAGUAUUAUGUUACGCCGUUCGGAUCUGCACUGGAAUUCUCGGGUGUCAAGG,-1.96
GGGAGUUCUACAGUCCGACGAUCCUCAAGUCCUGUGCUACACAUCGUAUGUACCGAAUCGGGGUUGGUUGGUUGGGAAAGUAUUAUGUUACGCCGUUCGGAUCUGCACUUCCAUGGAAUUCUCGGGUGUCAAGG,-0.0468
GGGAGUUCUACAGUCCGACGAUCACCAUGCAGGUGGGCAUCUUGGGGAAGUGGGGCAAGGGGGGGAUAGGGAGGGGGGUAACACUUUGGGAACAGGUGGUCCCAGGUCGUUUCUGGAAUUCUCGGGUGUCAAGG,0.169

# Study 3 — method: universal PBM; molecule type: double-stranded DNA, one strand shown; matrix: in vitro; tested at: 600 nM; reading: higher = stronger binding
# Target: Sal-like protein 4, full length isoform A (SALL4, Homo sapiens, UniProt Q9UJQ4, residues 1-1053)
# Sequence of UniProt Q9UJQ4 (whole entry, looked up): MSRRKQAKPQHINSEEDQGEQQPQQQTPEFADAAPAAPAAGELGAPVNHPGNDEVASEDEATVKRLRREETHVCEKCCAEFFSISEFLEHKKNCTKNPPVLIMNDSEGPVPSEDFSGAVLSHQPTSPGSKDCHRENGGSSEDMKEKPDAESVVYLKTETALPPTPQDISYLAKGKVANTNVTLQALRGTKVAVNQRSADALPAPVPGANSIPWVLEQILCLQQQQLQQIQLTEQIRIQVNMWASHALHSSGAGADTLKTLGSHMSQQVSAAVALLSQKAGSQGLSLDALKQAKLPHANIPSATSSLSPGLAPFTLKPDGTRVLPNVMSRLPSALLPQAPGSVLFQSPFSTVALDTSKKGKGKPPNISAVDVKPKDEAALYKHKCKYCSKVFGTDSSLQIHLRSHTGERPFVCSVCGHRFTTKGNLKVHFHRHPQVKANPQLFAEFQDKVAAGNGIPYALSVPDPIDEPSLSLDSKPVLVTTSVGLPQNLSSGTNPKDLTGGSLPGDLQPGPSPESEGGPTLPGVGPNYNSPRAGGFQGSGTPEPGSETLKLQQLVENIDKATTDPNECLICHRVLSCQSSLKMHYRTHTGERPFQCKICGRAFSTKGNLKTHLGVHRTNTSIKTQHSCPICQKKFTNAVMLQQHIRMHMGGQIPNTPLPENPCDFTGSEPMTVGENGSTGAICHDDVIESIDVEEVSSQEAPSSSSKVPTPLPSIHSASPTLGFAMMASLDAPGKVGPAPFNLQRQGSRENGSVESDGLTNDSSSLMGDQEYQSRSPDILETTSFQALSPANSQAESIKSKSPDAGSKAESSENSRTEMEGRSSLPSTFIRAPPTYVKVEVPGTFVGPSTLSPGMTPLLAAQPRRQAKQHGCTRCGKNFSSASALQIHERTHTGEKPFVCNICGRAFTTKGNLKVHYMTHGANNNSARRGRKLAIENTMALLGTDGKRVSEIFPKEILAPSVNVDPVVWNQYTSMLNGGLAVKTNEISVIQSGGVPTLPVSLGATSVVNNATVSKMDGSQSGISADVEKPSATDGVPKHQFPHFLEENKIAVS
# Setting: 8-mer, flanks averaged, mean of replicates
Sequence,E-score
TAGTTGAA,0.259
GCTGTGTA,-0.00145
TCCGTTAA,0.0123
TTCTCAAA,0.258
GCACTTTA,0.13

# Mixed results
Substance,target,assay,test system,conditions,how to read,measurement,result
"PhoQ, residues 284 288 289 292 302 303 SLANIV","PhoP, residues 12 14 15 18 19 LWHVM (Escherichia coli, UniProt P23836)","Sort-seq, item: YFP reporter",E. coli,"PhoQ-PhoP variant library, added: 10 µM Mg2+","relative to: high Mg2+ state, higher = stronger signaling",fold induction,9.59

# Some of these lines once more (study 2):
Sequence,log2 enrichment
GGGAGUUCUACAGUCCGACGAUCGUCCUGUGCUACACAUCGUAUGUACCGAAUCGGUUUUUGGAAAAAAAGGAAAAAAAGGAAAGUAUUAUGUUACGCCGUUCGGAUCUGCACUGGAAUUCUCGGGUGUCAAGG,-1.96
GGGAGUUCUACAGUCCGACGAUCACCAUGCAGGUGGGCAUCUUGGGGAAGUGGGGCAAGGGGGGGAUAGGGAGGGGGGUAACACUUUGGGAACAGGUGGUCCCAGGUCGUUUCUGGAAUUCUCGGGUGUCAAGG,0.169
